Assay results of several laboratories.
Numbered parts are unrelated; each lists some results of a single study.

Set 1 — technique: RNA Bind-n-Seq; molecule type: RNA; medium: in vitro; concentration: 365 nM; relative to: no-protein control; direction: higher = stronger binding; endpoint: RBNS enrichment (R)
Target: RNA binding protein fox-1 homolog 2, RRM domain, GST-SBP tag (RBFOX2, Homo sapiens, UniProt O43251-10, residues 100-194)
Notes: natural RNA segment, single round, ends assumed
All sequences stand within: GGGAGUUCUACAGUCCGACGAUC … UGGAAUUCUCGGGUGCCAA
Construct (chain): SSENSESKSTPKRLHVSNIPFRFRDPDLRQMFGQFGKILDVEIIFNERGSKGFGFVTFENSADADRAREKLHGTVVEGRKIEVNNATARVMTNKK
CUCGGGAGGCUGAGGCAGGAGAAUGGCGUGAACCCAGGAGGCGGAGCUUGCAGUGAGCCGAGAUUGUGCCACUGCACUCCAGCCUGGGCAACAGAGCUAGACUCUGUGUC: 0.269
GCUGGAGUCCGGGCAGAGCUUUCUCAGUUGUAUUGCUACUCCAGACCUCACCAUAGGUUGGGGUCCCAGUAGGAAGGCUCAGGGUCUGUGCCAGCCCUGUCGGUGCUGCU: 0.462
UUAUAUCAUUUUGUGGAUAUAGUUAUAAUCUGAUGGGCCUGGCUGGGAGUGGAAGAAGGGAAGCCUUUUGCAAAUAGUAGAGUAUCAGUUGCAGGUGCCAAUGACUAACU: 0.678
GUUCUGUGGCUAGGAUUGCUAGAGGGUCCUGCCUAUGUGAUUUGCUUUAGGAGAAGUUAAGAGGUAUAUUCUUAAGGUGUAUUCUAUUUUGAUCUAAUUCUGUUUCUGGG: 0.603
GAUGCAGAAUGAGGUAGCAUUCGAGUUGGAACCAAGAAGACUCUAAUGAUGUAUGCCCACCUUUCAUUUCUGCUAUUCAAGUUUUGACUAUGUAUCUAGCUUGUGCAAAA: 12.3
CCAAGACAUCUCUGACAGAAGUGUUUUUGUUUGGUUUUGUUUUUUAAGAUUAUGUAUUUGCUACAAAGUAUUGUACUUGUCUCAAUGGGAAUGGUGUUAAAAAAGAAAAA: 0.396
AAGGCUGAAUCCUUUUGACUCCUUGCUGUCUGACUCCUCAGUGGACUUGUUCCUCCAAAGCAGAACCCGGGAGGUUGCUAUCUGCCAGAAGCCUAGGCCAGCCAGAUACC: 0.195
AUCUAAAUCCAGGUCAGGCAUGGGAUAUCAGUAUUUAACAUUGGAUGUUUUAUGUUUUAUAUUUAUAAUGUUCAAAAUGCAAGCAUAACAUUUAAUAUUUGUCCACAUGG: 8.12

Set 2 — technique: aptamer microarray, sandwich; molecule type: DNA with 2'F-ANA; medium: in vitro; concentration: 200 nM; with: Cy3 exosite-II aptamer, 400 nM; direction: higher = stronger binding; endpoint: mean fluorescence intensity; strand: GGTTGGTGTGGTTGG
Target: Prothrombin, mature alpha-thrombin (F2, Homo sapiens, UniProt P00734)
Notes: whole 15-mer aptamer, many near background
2'F-ANA at 1 3 8 9 12 13 14: 139 a.u.
2'F-ANA at 3 4 5 11 13 15: 85.3 a.u.
2'F-ANA at 2 5 9 10 11 12 13 14: 51.9 a.u.
2'F-ANA at 7 8 10 11 14 15: 148 a.u.
2'F-ANA at 1 2 3 4 5 7 8 11 13: 58.7 a.u.
2'F-ANA at 2 3 10 11 12 13 14 15: 278 a.u.
2'F-ANA at 1 2 3 6 8: 291 a.u.
2'F-ANA at 4 5 6 7 9 10 12 15: 54.5 a.u.
2'F-ANA at 1 3 4 5 7 8 11 12 13 15: 81.3 a.u.
2'F-ANA at 1 2 5 8 12: 116 a.u.
2'F-ANA at 1 2 6 9 10 11 13 14: 46.1 a.u.
2'F-ANA at 1 5 6 9 14 15: 48.1 a.u.
2'F-ANA at 1 4 5 7 8 9 10 11 13 14: 47.4 a.u.
2'F-ANA at 1 2 3 4 5 8 9 11 12 13 14: 50.1 a.u.
2'F-ANA at 3 4 5 6 7 8 9 11 14 15: 62.7 a.u.
2'F-ANA at 1 2 3 5 7 8 11 14: 47.2 a.u.
2'F-ANA at 3 4 6 7 10 11 14: 169 a.u.
2'F-ANA at 3 5 6 9 11 12 13: 198 a.u.
2'F-ANA at 1 3 4 5 6 8 13 14: 46.7 a.u.

Set 3 — technique: protein binding microarray; molecule type: double-stranded DNA, one strand shown; medium: in vitro; concentration: not given; relative to: not given; direction: higher = stronger binding; endpoint: E-score
Target: Histone acetyltransferase KAT6A, winged helix 1, GST fusion (KAT6A, Homo sapiens, UniProt Q92794, residues 1-85)
Notes: 8-mer, flanks averaged, mean of 2 arrays, mostly near background
Target sequence (chain): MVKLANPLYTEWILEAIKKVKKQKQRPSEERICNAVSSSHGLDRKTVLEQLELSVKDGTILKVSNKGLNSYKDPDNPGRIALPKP
AATTCGCC: -0.00444
CATGTCCC: 0.0971
ACAATGAG: -0.223
TATGACAA: -0.209
CGTGTGAC: 0.103
CGTAATTC: 0.019
ACGCCGAA: 0.211
TAAGTTCA: -0.166
CCGGATCG: 0.086
AGGTAAGG: -0.176
CTGCACCA: -0.194
ACCGAACC: 0.0535
AGGAGTGG: -0.158
AATCCAAA: -0.145
CACTTTAG: -0.207
GTCATCAA: -0.0572
AAATACCC: 0.0408
AGGTACCG: 0.218
AGGCCTGA: -0.222
ATTGGTTC: -0.203
ACTCGTAG: -0.0923
GGCTGCCC: 0.102

Set 4 — technique: RNA Bind-n-Seq; molecule type: RNA; medium: in vitro; concentration: 1 µM; notes: whole 134-nt RNA, ends assumed; with: 150 mM KCl; relative to: input library; direction: higher = stronger binding; endpoint: log2 enrichment
Target: Ras GTPase-activating protein-binding protein 1, RRM domain (G3BP1, Homo sapiens, UniProt Q13283)
Sequence of UniProt Q13283 (whole entry, looked up): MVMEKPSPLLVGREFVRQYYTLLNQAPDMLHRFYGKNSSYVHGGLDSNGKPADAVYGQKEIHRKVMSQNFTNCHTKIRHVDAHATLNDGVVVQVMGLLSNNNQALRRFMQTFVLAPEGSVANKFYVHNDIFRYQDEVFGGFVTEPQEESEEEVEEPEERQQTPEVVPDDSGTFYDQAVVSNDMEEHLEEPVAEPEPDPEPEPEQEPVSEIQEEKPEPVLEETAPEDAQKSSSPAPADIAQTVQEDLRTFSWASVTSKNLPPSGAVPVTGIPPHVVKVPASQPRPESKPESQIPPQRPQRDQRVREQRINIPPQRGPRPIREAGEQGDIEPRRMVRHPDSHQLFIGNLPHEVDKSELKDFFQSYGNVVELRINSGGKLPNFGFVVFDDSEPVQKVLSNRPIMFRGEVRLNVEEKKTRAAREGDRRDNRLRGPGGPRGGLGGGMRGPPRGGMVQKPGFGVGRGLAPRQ
All sequences stand within: GGGAGUUCUACAGUCCGACGAUC … UGGAAUUCUCGGGUGUCAAGG
GUCCUGUGCUACACAUCGUAUGUACCGAAUCAAACCCAAAUUUUUUUAAAUUUUUAAAAAAGUAUUAUGUUACGCCGUUCGGAUCUGCAC: -0.857
UCCUGUGCUACACAUCGUAUGUACCGAAUCGGUUUUUUUGGUUUUUUUGGUUUUUUUGGAAAGUAUUAUGUUACGCCGUUCGGAUCUGCA: -0.0918
CCUCAAGUCCUGUGCUACACAUCGUAUGUACCGAAUCGGUUGGUUGGGUUGGGAAAGUAUUAUGUUACGCCGUUCGGAUCUGCACUUCCA: -0.192
AAGUCCUGUGCUACACAUCGUAUGUACCGAAUCGGGGUUUUUGGGGUGGGGUGGGGAAAGUAUUAUGUUACGCCGUUCGGAUCUGCACUU: 0.732
ACCAUGCAGGUGGGCAUCUUUGGGAAGUGGGGCAAGGGGGGGAUAGGGAGGGGGGUAACACUUUGGGAACAGGUGGUCCCAGAUCGUUUC: 0.744
UGACCUGCACGGACAUCAACACCCUGACAAGGCAGAAGGAACUUCUCCUGCAGAAGCUGAGCACAUUUGAGGAGACCAACCGCACCCUCC: -0.184
UUGUUUUUUUUUUGUUCUUUUUUUCCAUGUCACUAAAGGCCCUCGGGACCAAGGAUCACGUCAUGACUCCGGUGAGUUCACACGUGGUGG: -1.28
UCAAGUCCUGUGCUACACAUCGUAUGUACCGAAUCGGUUUUUUUGGAGGAAAGGAAAGUAUUAUGUUACGCCGUUCGGAUCUGCACUUCC: -0.129
CAAGUCCUGUGCUACACAUCGUAUGUACCGAAUCGGGGUUUGGUUUGGGUUUGGGGAAAGUAUUAUGUUACGCCGUUCGGAUCUGCACUU: -0.343

For quick reference, copied from above (set 2):
2'F-ANA at 1 2 3 4 5 7 8 11 13: 58.7 a.u.
2'F-ANA at 2 3 10 11 12 13 14 15: 278 a.u.
2'F-ANA at 3 4 5 6 7 8 9 11 14 15: 62.7 a.u.
2'F-ANA at 3 4 5 11 13 15: 85.3 a.u.
2'F-ANA at 1 4 5 7 8 9 10 11 13 14: 47.4 a.u.
2'F-ANA at 1 2 5 8 12: 116 a.u.
2'F-ANA at 1 2 6 9 10 11 13 14: 46.1 a.u.
2'F-ANA at 3 4 6 7 10 11 14: 169 a.u.
2'F-ANA at 1 5 6 9 14 15: 48.1 a.u.
